Assay results of several laboratories.
Numbered parts are unrelated; each lists some results of a single study. Changes are numbered by the printed parent chain.

Sample 1
Target: ABI1, truncated, D143A, DHFR fusion (Arabidopsis thaliana)
Method: DHFR PCA, deep sequencing
Medium: yeast
Notes: methotrexate growth selection, single substitutions
Together with: (+)-ABA 1.4 µM
Relative to: wild-type fitted maximum
Reading: higher = stronger binding
Quantity: relative binding score
Starting sequence: PYL1, truncated, DHFR fusion (Arabidopsis thaliana); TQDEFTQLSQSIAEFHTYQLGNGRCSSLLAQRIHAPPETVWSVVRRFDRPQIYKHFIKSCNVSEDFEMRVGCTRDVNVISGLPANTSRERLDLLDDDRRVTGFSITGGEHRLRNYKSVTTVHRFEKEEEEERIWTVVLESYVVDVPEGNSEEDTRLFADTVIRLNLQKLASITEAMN
G107R: 0.836%
S9T: 67.1%
S140T: 3.75%
E38F: 6.52%

Sample 2
Target: Interferon regulatory factor 5, full length, phosphomimetic (IRF5, Homo sapiens, UniProt Q13568-2, residues 1-514, S451D/S453D/S456D/S462D)
Method: protein-binding microarray
Form: double-stranded DNA, one strand shown
Medium: in vitro
Concentration: 940 nM top
Notes: 60-bp whole probe
Together with: salmon DNA 0.4 mg/ml
Relative to: random background probes
Reading: higher = stronger binding
Quantity: fitted relative affinity
Shared flanks, not repeated: GCCTAGCAC … GTCTTGATTCGCTTGACGCTGCTG
TCAGGTTTTCTAATGTTACTGTGCTAG: 0.618 z-score
GACGTTATCGGTTTCGGGACGTGCTAG: 4.22 z-score
GACCGTATCCTTATCCTGACGTGCTAG: 0.346 z-score
ATAGATATCAGACTGGATTAGTGCTAG: -0.222 z-score
GACTGTTTCGGGACTGGGGACGTGCTA: 2.57 z-score
GACGGTTTCGACACTGGGGAAGTGCTA: 7.21 z-score

Sample 3
Target: Ras GTPase-activating protein-binding protein 1, full length (G3BP1, Homo sapiens, UniProt Q13283)
Sequence of UniProt Q13283 (whole entry, looked up): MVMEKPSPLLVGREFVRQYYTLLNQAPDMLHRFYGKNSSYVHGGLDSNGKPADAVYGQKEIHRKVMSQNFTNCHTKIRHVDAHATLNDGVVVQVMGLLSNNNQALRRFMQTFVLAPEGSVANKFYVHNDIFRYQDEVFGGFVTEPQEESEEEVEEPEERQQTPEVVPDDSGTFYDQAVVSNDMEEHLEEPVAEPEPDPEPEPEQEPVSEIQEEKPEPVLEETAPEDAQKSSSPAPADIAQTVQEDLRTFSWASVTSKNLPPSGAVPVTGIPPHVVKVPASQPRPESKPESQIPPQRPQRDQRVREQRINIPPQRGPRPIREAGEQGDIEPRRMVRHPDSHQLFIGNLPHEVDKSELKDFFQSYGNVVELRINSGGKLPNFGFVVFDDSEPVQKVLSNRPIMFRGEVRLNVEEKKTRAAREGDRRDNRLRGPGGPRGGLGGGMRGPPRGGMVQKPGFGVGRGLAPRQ
Method: RNA Bind-n-Seq
Form: RNA
Medium: in vitro
Concentration: 200 nM
Notes: whole 134-nt RNA, ends assumed
Together with: 150 mM LiCl
Relative to: input library
Reading: higher = stronger binding
Quantity: log2 enrichment
All molecules: 7-deaza-guanosine replaces G
Shared flanks, not repeated: GGGAGUUCUACAGUCCGACGAUC … UGGAAUUCUCGGGUGUCAAGG
GGGGAGGUGGAUUUUGUUUAUUUUUUUAGCUCAUUUCCAGGGGUGGGAAUUUUUUUUUAAUAUGUGUCAUGAAUAAAGUUGUUUUUGAAA: 0.49
UGGGAGGUGGAUUUUGUUUAUUUUUUUAGCUCAUUUCCAGUGGUGGGAAUUUUUUUUUAAUAUGUGUCAUGAAUAAAGUUGUUUUUGAAA: -0.806
CUCAAGUCCUGUGCUACACAUCGUAUGUACCGAAUCGGGUUGGGGUUGGUUGGGAAAGUAUUAUGUUACGCCGUUCGGAUCUGCACUUCC: 0.194
AGUCCUGUGCUACACAUCGUAUGUACCGAAUCGGGUUUUUGGGAGGGUUUUUUUGGGAAAGUAUUAUGUUACGCCGUUCGGAUCUGCACU: -0.672
CACAGACAACACGCACCCACACAGACACAGAGGGAAGGGGUUGGGAUGGGGACAGGGUGCACAGCAGGGCGGGGUAGGACCCCAAAACCU: -1.77
CUCAAGUCCUGUGCUACACAUCGUAUGUACCGAAUCGGGAAAGGAAAGGAAAGGAAAGUAUUAUGUUACGCCGUUCGGAUCUGCACUUCC: -0.386
CCUCAAGUCCUGUGCUACACAUCGUAUGUACCGAAUCGGUUUUUGGAGGAGGAAAGUAUUAUGUUACGCCGUUCGGAUCUGCACUUCCAG: -0.0376
AAGUCCUGUGCUACACAUCGUAUGUACCGAAUCGGGUUUGGGUUUUUGGGUUUGGGAAAGUAUUAUGUUACGCCGUUCGGAUCUGCACUU: -0.756

Other studies, line by line
PhoQ, residues 284 288 289 292 302 303 AGHLVA — fold induction (PhoP, residues 12 14 15 18 19 LYFRQ (Escherichia coli, UniProt P23836); Sort-seq, measured: YFP reporter; E. coli; PhoQ-PhoP variant library, together with: 10 µM Mg2+; relative to: high Mg2+ state, higher = stronger signaling): 3.32

Repeated from above (sample 3):
CACAGACAACACGCACCCACACAGACACAGAGGGAAGGGGUUGGGAUGGGGACAGGGUGCACAGCAGGGCGGGGUAGGACCCCAAAACCU: -1.77
CUCAAGUCCUGUGCUACACAUCGUAUGUACCGAAUCGGGAAAGGAAAGGAAAGGAAAGUAUUAUGUUACGCCGUUCGGAUCUGCACUUCC: -0.386
